Measurements pooled from the literature.
Each numbered part is a random draw from the data of one study; scales do not carry over between parts.

Sample 1 — method: RNA Bind-n-Seq; molecule type: RNA; matrix: in vitro; concentration: not given; relative to: input RNA pool; direction: higher = stronger binding
Target: RING finger protein unkempt homolog, zinc fingers 1-6, GST-SBP tag (UNK, Homo sapiens, UniProt Q9C0B0, residues 30-357)
Setting: RNA with constant flanks, human-mouse chimeric sites, ends assumed
Shared flanks, not repeated: GGGAGUUCUACAGUCCGACGAUC … CAACAGAGGAUUGAGCAUCA
Target sequence (chain): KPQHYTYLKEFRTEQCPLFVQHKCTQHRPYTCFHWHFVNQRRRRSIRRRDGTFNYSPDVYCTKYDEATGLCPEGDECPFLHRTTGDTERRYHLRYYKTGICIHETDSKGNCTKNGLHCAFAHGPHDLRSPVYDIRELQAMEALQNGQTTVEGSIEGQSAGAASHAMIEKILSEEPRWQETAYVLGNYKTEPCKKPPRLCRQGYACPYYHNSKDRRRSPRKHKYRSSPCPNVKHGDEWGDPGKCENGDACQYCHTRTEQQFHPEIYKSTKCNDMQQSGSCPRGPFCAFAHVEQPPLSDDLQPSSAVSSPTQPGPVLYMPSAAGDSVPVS
Strand | bound/input enrichment [ratio]
UACUGCUGCUUUCAACUUAAAUCACUGAGGCAUCUCUACUAUUCUGUGAGCAUCAGGACUGUAGCGCUGUGUCACCACAUGAGAGUUCAGAAGCAGCCUUUCUGUGGAGGGUGGGAAUGA | 0.11
CCCACGCCUCCUCUCCCCCAGGCCCGAGAUAUAACCCACCAGUGCCUUUUGUCUUCCUGUCAGCUCUGUCAAUCACGCCUGUCCUCUCACGCCCACACCAAGUGCCCAAAGUGGGGAGGG | 1.35
UCAAGGGGGCACUGCAGAGCCAUGCCUUUCCUUGACAUACAGAAAAAGUUCGGCCUUAGCCUGGACCGGCACUUUAUGUUCCUAAGCGCAGAACAGCCCUAUAAGAACGCCGCUCGGUGC | 0.0774
CUGGCCUGGCCCUCCCCAGGGGCCUCCUUUCGUAUAGUCACUGCUUCUGCAUCAGAUAUUUUUAGCUGCAACUCCCUACUGGGUGGGGCACCUAUCUCAGGCAGAAGGUUUUGGUACCCU | 0.305
AUAGAUGAAAUUGAUGUGGACCAGGAAGGAAUUGCUGAAAUGAUCCUGGAUGAAAAUGCUAUUGCUCAAGUUCCACGCCCUGGCACAUCUUUGAAGCUCCCUGGCACUAACCAAACAGGA | 0.338
GAAUCCUACUCAGGCGGAUUUUGCAACACCAAGCUCAAGUAGCAAUUAUCUUAGUCACAGUAGGGUAGUUUUGGGGCUCUGUGGCCAUGGUUUUACUCACAUGCAGGUUUGGAAAAUGUA | 1.58
GAUGAUAAUCACACAAACAAGUCACUGUUACAUGACCAGAGUUGUACUUCUUUUCCUGAUUAAUAUUCUCCCUGGAACCACUGGUCAAGGGGAAUCAAGACGACAAGAACCCGGGGACUU | 0.153
UACUACUAUGAUGGUGAUAUUGGCAAUUAUUAUUAUGGCCAGGGUCAUCCCAUGAAGCCUCAUAGAAUCCGGAUGACUCAUAACUUGCUGUUAAAUUAUGGCUUAUACCGAAAAAUGGAA | 0.1
CGGAGCCCCUCCCUCUCCCAGGCCCGAGAUAUAACCCACCAGUGCCUUUUGUCUUCCUGUCAGCUCUGUCAAUCACGCCUGUCCUCUCACGCCCACACCAAGUGCCCAAAGUGGGGAGGG | 0.393
ACACAAUAUGAGACCAACAGCAUGGACUUCAAAGUUGGGGCAGAUGGGACAGUCUUCGCCACCCGGGAGUUGAAGAUCCCCUCCGAGCAGGUGGCGUUUACCGUCACUGCAUGGGACAGC | 0.135
GUUGCCAGCUUCCGGUUCCGUUGGGCUCGGUUCUCUCAGUGCUACGUUGUCUCUACGUUUUAGGUGUGCCAUCCAACAAACAUGGAUCAGGUAAUGCAGUUUGUGGAGCCCAGCCGGCAG | 0.113

Sample 2 — method: RNA Bind-n-Seq; molecule type: RNA; matrix: in vitro; concentration: 200 nM; setting: whole 134-nt RNA, ends assumed; with: 150 mM KCl; relative to: input library; direction: higher = stronger binding
Target: Ras GTPase-activating protein-binding protein 1, full length (G3BP1, Homo sapiens, UniProt Q13283)
Sequence of UniProt Q13283 (whole entry, looked up): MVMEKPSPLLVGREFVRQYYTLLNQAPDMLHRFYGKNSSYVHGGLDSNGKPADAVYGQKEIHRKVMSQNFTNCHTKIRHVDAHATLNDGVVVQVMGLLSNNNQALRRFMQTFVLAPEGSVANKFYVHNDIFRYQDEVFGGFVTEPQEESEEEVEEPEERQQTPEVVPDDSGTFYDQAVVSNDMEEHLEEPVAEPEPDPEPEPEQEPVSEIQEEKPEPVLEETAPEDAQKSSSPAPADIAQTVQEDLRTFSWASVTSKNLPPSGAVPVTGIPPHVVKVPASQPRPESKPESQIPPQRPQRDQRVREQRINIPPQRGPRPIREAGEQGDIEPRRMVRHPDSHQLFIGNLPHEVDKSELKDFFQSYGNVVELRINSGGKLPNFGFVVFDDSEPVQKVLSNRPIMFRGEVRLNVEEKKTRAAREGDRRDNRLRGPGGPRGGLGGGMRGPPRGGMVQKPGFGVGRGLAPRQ
Shared flanks, not repeated: GGGAGUUCUACAGUCCGACGAUC … UGGAAUUCUCGGGUGUCAAGG
Strand | log2 enrichment
CCUGUGCUACACAUCGUAUGUACCGAAUCGGGGUUUUUUGGGUUUUUUGGGGUUUUUUGGGAAAGUAUUAUGUUACGCCGUUCGGAUCUG | -0.43
CACAGACAACAAAAACCCACACAGACACAGAGGGAAGGGGUUGGGAUGGGGACAGGGUGCACAGCAGGGCGGGGUAGGACCCCAGCCCCU | 1.85
GUCCUGUGCUACACAUCGUAUGUACCGAAUCGGGAAAAAGGGAAAAAGGGGAAAAAGGGAAAGUAUUAUGUUACGCCGUUCGGAUCUGCA | -0.253
GUCCUGUGCUACACAUCGUAUGUACCGAAUCGGUUUUUUUGGUUUUUGGAAAAAAAGGAAAGUAUUAUGUUACGCCGUUCGGAUCUGCAC | -1.11
UGGCCCUGGUGGCAUGCGGGGAGGAAGUGGUGGCCUCAUGGAUCGUGGUGGUCCCGGUGGAAUGUUCAGAGGUGGCCGUGGUGGAGACAG | 0.345
GCAGGAAGUAAAAACAAAUGGAAAUGCUUCGGAUAGUGGCAGGGGAAAGGGUUGCUAAGGAAAGGGUGGGAUGGGAGUGGGUAAAGAGUU | 1.04
UGGCCCUGGUGGCAUGCGGGGAGGAAGAGGUUGCCUCAUGGAUCGUGGUGGUCCCGGUGGAAUGUUCAGAGGUGGCCGUGGUGGAGACAG | 0.0387
CAAGUCCUGUGCUACACAUCGUAUGUACCGAAUCGGGUGGGUGGGAAAAAAAGGGAAAGUAUUAUGUUACGCCGUUCGGAUCUGCACUUC | 0.179
UGGCCCUGGUGGCAUGCGGGGGGGAAGAGGUGGCCUCAUGGAUCGUGGUGGUCCCGGUGGAAUGUUCAGAGGUGGCCGUGGUGGAGACAG | 0.581
UGUACUGAUGACAGCUAAUCUCUGAAUCUUUUUCCUCCAGGAUGUUCCUUCAGGAGGAAGCAGCACUAAAAGCACUCUGAGUCAAGAUGA | -0.927
AGUCCUGUGCUACACAUCGUAUGUACCGAAUCAAACCCCCAAAUUUUUAAAUUUAAAAAAGUAUUAUGUUACGCCGUUCGGAUCUGCACU | -0.134
UCCUCAAGUCCUGUGCUACACAUCGUAUGUACCGAAUCGGUGGUGGGUGGGAAAGUAUUAUGUUACGCCGUUCGGAUCUGCACUUCCAGC | 0.0819
AGUCCUGUGCUACACAUCGUAUGUACCGAAUCGGGGAAAAGGGAAAAGGGAAAAGGGGAAAGUAUUAUGUUACGCCGUUCGGAUCUGCAC | 0.414
UGGGAGGUGGAUUUUGUUUAUUUUUUUAGCUCAUUUCCAGGGGUGGGAAUUUUUUUUUAAUAUGUGUCAUGAAUAUAGUUGUUUUUGAAA | 0.219

Sample 3 — method: protein-binding microarray; molecule type: double-stranded DNA, one strand shown; matrix: in vitro; concentration: 2540 nM top; setting: 60-bp whole probe; with: salmon DNA 0.4 mg/ml; relative to: random background probes; direction: higher = stronger binding; shared flanks, not repeated: GCCTAGCAC … GTCTTGATTCGCTTGACGCTGCTG
Target: Interferon regulatory factor 3, full length, phosphomimetic (IRF3, Homo sapiens, UniProt Q14653, residues 1-427, S386D/S396D/S398D/S402D/T404D/S405D)
Residues (chain): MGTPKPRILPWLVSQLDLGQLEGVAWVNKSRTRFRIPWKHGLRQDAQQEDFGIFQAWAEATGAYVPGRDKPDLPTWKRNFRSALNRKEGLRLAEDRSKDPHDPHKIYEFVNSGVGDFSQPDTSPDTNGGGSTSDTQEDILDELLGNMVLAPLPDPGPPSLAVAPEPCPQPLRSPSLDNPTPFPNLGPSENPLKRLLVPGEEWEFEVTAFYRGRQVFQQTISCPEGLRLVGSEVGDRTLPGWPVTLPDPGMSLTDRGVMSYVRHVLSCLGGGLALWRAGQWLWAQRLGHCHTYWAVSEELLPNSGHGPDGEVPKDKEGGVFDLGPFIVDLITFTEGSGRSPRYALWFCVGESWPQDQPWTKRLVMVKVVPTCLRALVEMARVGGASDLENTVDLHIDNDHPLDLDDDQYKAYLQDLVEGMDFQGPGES
Strand | fitted relative affinity [z-score]
TCAGGTCTCCTTCTCCTTTAGTGCTAG | 4.44
TGAGGACTGCTTTTCCTTTAGTGCTAG | 0.482
TTAGCTCTCGGACTGGGTTAGTGCTAG | -0.699
CAGAATCCAGCTCAGGTTGTGTGCTAG | 0.644
CAGGGAATTCACCTGCTGACGTGCTAG | -0.389
TTAGGTTTCGGATTTCGGTTAGTGCTA | 7.69
TTAGGTATCCGGTTTCGGTTAGTGCTA | 4.8
TTTGGACTGGGGTTTCGGTTAGTGCTA | 2.11
TTAGGTATCGACATTGGGTTAGTGCTA | 0.354
GACGGTCTCGACTTTCGGGACGTGCTA | 0.625
GACGGTATCGACTATCGGTACGTGCTA | 0.825
TTAGGTTTCTTTTCCCTTTAGTGCTAG | 5.86
TTAGGTTTCAGTTTCGATTAGTGCTAG | 7.8
TTAGGTTTCGAAACTGGGTTAGTGCTA | 4.86
TCAGCTCACACCTGTCATACTGTGCTA | -0.0593
GACGGTATCGACATTGGGGACGTGCTA | 0.663
TTAGGTCTAGGACTGGGTTAGTGCTAG | -0.823
GGCGATTTCAGTTTCGAGACGTGCTAG | 4.58
GACGATATCAGACTGGAGAAGTGCTAG | 0.258
TTAGGTATCCTTTTCCGTTAGTGCTAG | 7.58
GACGAACTGGGGACCGGAGACGTGCTA | -0.412
TTAGGTATCCTTTTCCTTGAGTGCTAG | 7.98
TCACTCTTGCTTTTTAGACTGTGCTAG | 1.41
GACCAACTGAGTCTCGAGACGTGCTAG | -0.107
TCAGTTTACATTTTCCAACTGTGCTAG | 3.93

Sample 4 — method: protein binding microarray; molecule type: double-stranded DNA, one strand shown; matrix: in vitro; concentration: not given; relative to: not given; direction: higher = stronger binding
Target: Histone acetyltransferase KAT6A, winged helix 1, GST fusion (KAT6A, Homo sapiens, UniProt Q92794, residues 1-85)
Setting: 8-mer, flanks averaged, mean of 2 arrays, mostly near background
Residues (chain): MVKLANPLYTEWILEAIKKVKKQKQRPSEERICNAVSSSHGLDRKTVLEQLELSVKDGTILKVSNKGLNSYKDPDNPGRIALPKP
Strand | E-score
GAGAACCC | -0.136
CTCTTACC | -0.0286
AAGTTCAA | -0.0848
AGCTGGTG | -0.197
CCTGAAGC | -0.0576
CGAATCAG | -0.244
GTCAGGCA | -0.0967
CATCCGTA | 0.192
CGTAGAAG | -0.00225
ACGCGTCA | 0.211
AAGGGCGA | 0.0544
GGAATTAA | -0.0591
ATATGGCC | 0.0452
GAGAGTGA | -0.088
ACTAAAGT | -0.162
CGTCGCAG | 0.252
AACGTCCT | -0.0786
AGAAAGAG | -0.266
ACTGAGTA | -0.0816
ATCAGGTG | -0.0712
ACCAATCA | -0.32

Some of these lines once more (sample 3):
Strand | fitted relative affinity [z-score]
TTAGGTCTAGGACTGGGTTAGTGCTAG | -0.823
GACGGTCTCGACTTTCGGGACGTGCTA | 0.625
TCAGTTTACATTTTCCAACTGTGCTAG | 3.93
TTAGGTATCCTTTTCCGTTAGTGCTAG | 7.58
GGCGATTTCAGTTTCGAGACGTGCTAG | 4.58
TTAGCTCTCGGACTGGGTTAGTGCTAG | -0.699
